Assay results pooled from the literature.
Each line is one published result; not all experiments were run side by side. ± marks the error that the study gave. ≈ marks a conversion by molar mass, not a printed value.

For `Cc1ccc(S(=O)(=O)N(CCc2nnc(S)o2)c2ccc(Cl)cc2)cc1`, “paw edema inhibition” read 19.4% (rat; 75 mg/kg, 1 h, added: carrageenan).
For `CSCC[C@@H](NC(=O)[C@@H](CC(=O)O)NC(=O)[C@H](NC(=O)[C@@H](Cc1ccc(O)cc1)NC(=O)[C@@H](CC(N)=O)NC(=O)[C@H](N)CCCNC(=N)N)C(C)C)C(=O)N[C@H](Cc1ccccc1)C(=O)N[C@H](CCCCN)C(=O)O`, CNV volume read “no effect” (C57BL/6 mice laser CNV; intravitreal, 20 ng or 2 µg, 10 days; baseline: PBS).
The glucose AUC of `CCCCCCCCCCCCCCCC(=O)N[C@@H](CCC(=O)NCCCC[C@H](NC(=O)[C@H](CC(=O)O)NC(=O)[C@H](CO)NC(=O)[C@@H](NC(=O)[C@H](Cc1ccccc1)NC(=O)[C@@H](NC(=O)CNC(=O)[C@H](CCC(N)=O)NC(=O)[C@H](CO)NC(=O)[C@@H](N)Cc1c[nH]cn1)[C@@H](C)O)[C@@H](C)O)C(=O)N[C@@H](CO)C(=O)N[C@@H](CCC(=O)O)C(=O)N[C@@H](Cc1ccc(O)cc1)C(=O)N[C@@H](CC(C)C)C(=O)N[C@@H](CC(=O)O)C(=O)N[C@@H](CO)C(=O)N[C@@H](CCC(=O)O)C(=O)N[C@@H](CCCNC(=N)N)C(=O)N[C@@H](C)C(=O)N[C@@H](CCCNC(=N)N)C(=O)N[C@@H](CC(=O)O)C(=O)N[C@@H](Cc1ccccc1)C(=O)N[C@H](C(=O)N[C@@H](C)C(=O)N[C@@H](Cc1c[nH]c2ccccc12)C(=O)N[C@@H](CC(C)C)C(=O)N[C@@H](CCC(=O)O)C(=O)N[C@@H](C)C(=O)NCC(=O)NCC(=O)O)C(C)C)C(=O)O` is reported as 785 mmol·min/L (intraperitoneal glucose tolerance test; diet-induced obese mouse; subcutaneous, 10 nmol/kg, 1 h before glucose, added: glucose 1.5 g/kg intraperitoneal).
`CC(=O)N[C@@H](CC(N)=O)C(=O)NCC(=O)N[C@@H](C)C(=O)N[C@@H](C)C(N)=O`: “rate constant succinimide to α-Asp” 0.68 h⁻¹ (1H NMR; sodium phosphate buffer 50 mM; pH 7.4, 55 °C).
With `CC1=C(/C=C/C(=O)N2CCN(C(N)=O)CC2)C(C)(C)CCC1` the ONL thickness was about 50% (T17M RHO transgenic mouse, posterior retina; dose not given, 7 weeks; baseline: vehicle).
For `COc1cc(Cn2ccc3cc(C(=O)NCC45CC6CC(CC(C6)C4)C5)ccc32)ccc1C(=O)NO`, NeuN-positive signal read “increased” (immunohistochemistry; 5xFAD mice, hippocampus; intraperitoneal, 10 mg/kg daily, 2 months; baseline: vehicle).
`CCOC(=O)C(Cc1cccc(O)c1)OC(=O)C=Cc1ccc(O)c(O)c1C=Cc1ccc(O)c(O)c1` (stereo not drawn) — result for “serum LDH level”: 123 ± 19% (C57 wild-type mice, isoproterenol-induced myocardial ischemia, serum; oral, 10 mg/kg pretreatment for 7 days, added: isoproterenol 3 mg/kg; baseline: normal group).
`CNc1oc(-c2cccc3ccccc23)nc1C#N`: 12-HETE release “decreased” (mouse islets; 10 µM, 4 h, added: proinflammatory cytokines).
With `Cc1ccc(N(O)/N=N/c2ccc(S(=O)(=O)Nc3nccs3)cc2)cc1` the inhibition was 25.7% (paw oedema; rat, carrageenan oedema; oral, 100 mg/kg, 2 h after carrageenan; baseline: vehicle).
`C=C(c1cc(F)c(C(=O)O)c(F)c1)c1cc2c(cc1C)C(C)(C)CCC2(C)C` — result for “log2 fold change”: -0.44 (RNA sequencing, refers to: Lrrc4c mRNA; rat, brain; dose not given, 24 h, single dose; baseline: vehicle).
Under “fecal water content”, `CN1Cc2c(Cl)cc(Cl)cc2C(c2cccc(S(=O)(=O)NCCOCCOCCNC(=O)C(O)C(O)C(=O)NCCOCCOCCNS(=O)(=O)c3cccc(C4CN(C)Cc5c(Cl)cc(Cl)cc54)c3)c2)C1` (stereo not drawn) is recorded as 53 % by weight (Sprague Dawley rats; oral, 3 mg/kg, 16 h).
With `O/N=C/c1cnn(-c2ccccc2)n1` the clotting time was 48.5 ± 1 s (aPTT; human plasma; 10 µM).
`NS(=O)(=O)NCC(F)(F)c1ccccc1F` gave an ED50 of 44 ± 3 mg/kg (protection from seizures; hippocampal kindled rat; intraperitoneal, 0.25 h).
For `COc1ccc2c(c1)c(CC(=O)OCC(=O)OC(C)(C)C)c(C)n2C(=O)c1ccc(Cl)cc1`, “latency of nociceptive response” read 10 ± 0.75 s (hot plate test; BALB/c mice; 75 mg/kg, 0 min).
`COc1ccc(C2CC(c3ccc(C)cc3)=Nc3ccccc3S2)cc1OC` (stereo not drawn) has a blood glucose of 128 mg/dL (Wistar rat, STZ-induced diabetes; oral, 10 mg/kg once daily, day 28).
For `CC/C=C\C/C=C\C/C=C\C/C=C\C/C=C\CCCCOC(CC)C(=O)O` (stereo not drawn), “serum amyloid A change” read -68% (APOE*3Leiden.CETP mice, high-fat/cholesterol diet; dose not given, 20 weeks; baseline: control).
The clotting time of `COc1ccc(-n2cc(CO)nn2)cc1` is reported as 189 ± 3 s (plasma recalcification time; human plasma; 10 µM).
Under “number of specifically responsive genes”, `O=[N+]([O-])c1cc(Br)cc([N+](=O)[O-])c1NS(=O)(=O)c1ccc(Br)cc1` is recorded as 936 (RNA-Seq; Arabidopsis thaliana Col seedlings, ten-day-old; 50 µM, 3 h).
Under “log2 fold change”, `Cc1cc2c(cc1C1(c3ncc(C(=O)O)cn3)CC1)C(C)(C)CCC2(C)C` is recorded as 0.45 (RNA sequencing, refers to: Emr4 mRNA; rat, brain; dose not given, 24 h, single dose; baseline: vehicle).
For `CC(=O)c1cnc(N)nc1N1CC[C@H]1c1nn2ccc(Cl)c2c(=O)n1-c1ccccc1`, the ED50 was 0.5 mg/kg (arthritic inflammation; rat collagen-induced arthritis; oral, once daily).
`CCCOC(=O)Cc1c(C)n(C(=O)c2ccc(Cl)cc2)c2ccc(OC)cc12`: “latency of nociceptive response” 15.6 ± 0.93 s (hot plate test; BALB/c mice; 100 mg/kg, 120 min).
`Nc1nc2cnc(C(=O)N3CCOC[C@@H]3c3ccc(C(F)(F)F)cc3)cc2c2c1COC2`: “time to ctDNA decline” at most 4 weeks (refers to: circulating tumour DNA; human, plasma cfDNA; oral, 800 mg once daily).
For `[2H]c1c(NS(C)(=O)=O)c([2H])c2c(C(=O)c3ccc(OCCCN(CCCC)CCCC)cc3)c(CCCC)oc2c1[2H]`, “AF conversion to sinus rhythm” read 50% (dog persistent AF model; intravenous, 3 mg/kg; baseline: animals).
`CCCCCCCCCCCCCCCC(=O)OCC(CSC[C@H](N)C(=O)N[C@@H](CO)C(=O)N[C@@H](CCCCN)C(=O)N[C@@H](CCCCN)C(=O)N[C@@H](CCCCN)C(=O)N[C@@H](CCCCN)C(=O)NCCCCCC(=O)N[C@@H](CCCCN)C(=O)N[C@@H](CC(C)C)C(=O)N[C@H](C(=O)N[C@@H](Cc1ccccc1)C(=O)N[C@@H](Cc1ccccc1)C(=O)N[C@@H](Cc1ccc2ccccc2c1)C(=O)O)C(C)C)OC(=O)CCCCCCCCCCCCCCC` (stereo partly drawn): “thioflavin S fluorescence” “decreased” (refers to: amyloid plaques; APP/PS1 mouse; intracortical, dose not given, 5 d; baseline: vehicle).
For `CCn1nc(Cl)c2c1-c1cnc(N)c(c1)O[C@H](C)c1cc(F)ccc1-c1nn(C)cc1C2`, “tumour size change” read -82% (RECIST; human; oral, 150 mg once daily, 6 weeks).
For `COc1c2c(cc3oc(CO)cc(=O)c13)O[C@H](C(C)(C)O)C2`, “hot plate latency” read 12.6 ± 2.8 s (analgesia; mouse; oral, 2 mg/kg, 0.5 h).
The EC50 of `CC(C)(O)c1ncc([S@](N)(=O)=NC(=O)Nc2c3c(cc4c2CCC4)CCC3)s1` is reported as 0.059 µg/mL (≈ 0.14 µM) (IL-1β release; healthy humans, whole blood ex vivo; plasma concentration, added: LPS).
`CC[C@H]1[C@@H](O)[C@@H]2[C@H](CC[C@]3(C)[C@@H]([C@H](C)CCOS(=O)(=O)[O-])CC[C@@H]23)[C@@]2(C)CC[C@@H](O)C[C@@H]12.[Na+]`: “plasma total cholesterol” 9.2 ± 0.3 mmol/L (ob/ob NASH mice, plasma; oral, 3 mg/kg once daily, 8 wk).
The clotting time of `CCCCOCc1cn(-c2cc(Cl)ccc2Cl)nn1` is reported as 15.2 ± 0.06 s (prothrombin time; human plasma; 10 µM).
With `CC(=O)[O-].O.O.[O-]c1ccc(Br)cc1C=NCCN1CCOCC1.[Zn+2]` the inhibition was 54.6% (hydroxyl radical scavenging; 240 µM).

For quick reference, copied from above:
`C=C(c1cc(F)c(C(=O)O)c(F)c1)c1cc2c(cc1C)C(C)(C)CCC2(C)C` — result for “log2 fold change”: -0.44 (RNA sequencing, refers to: Lrrc4c mRNA; rat, brain; dose not given, 24 h, single dose; baseline: vehicle).
Under “fecal water content”, `CN1Cc2c(Cl)cc(Cl)cc2C(c2cccc(S(=O)(=O)NCCOCCOCCNC(=O)C(O)C(O)C(=O)NCCOCCOCCNS(=O)(=O)c3cccc(C4CN(C)Cc5c(Cl)cc(Cl)cc54)c3)c2)C1` (stereo not drawn) is recorded as 53 % by weight (Sprague Dawley rats; oral, 3 mg/kg, 16 h).
With `O/N=C/c1cnn(-c2ccccc2)n1` the clotting time was 48.5 ± 1 s (aPTT; human plasma; 10 µM).
